Assay results collected from several papers.
Each numbered part is a random draw from the data of one study; scales do not carry over between parts. Values joined by “and” are separate records of one study, mostly repeats; a detail may differ.
Sequence of UniProt Q9QZL0 (whole entry, unmodified, looked up): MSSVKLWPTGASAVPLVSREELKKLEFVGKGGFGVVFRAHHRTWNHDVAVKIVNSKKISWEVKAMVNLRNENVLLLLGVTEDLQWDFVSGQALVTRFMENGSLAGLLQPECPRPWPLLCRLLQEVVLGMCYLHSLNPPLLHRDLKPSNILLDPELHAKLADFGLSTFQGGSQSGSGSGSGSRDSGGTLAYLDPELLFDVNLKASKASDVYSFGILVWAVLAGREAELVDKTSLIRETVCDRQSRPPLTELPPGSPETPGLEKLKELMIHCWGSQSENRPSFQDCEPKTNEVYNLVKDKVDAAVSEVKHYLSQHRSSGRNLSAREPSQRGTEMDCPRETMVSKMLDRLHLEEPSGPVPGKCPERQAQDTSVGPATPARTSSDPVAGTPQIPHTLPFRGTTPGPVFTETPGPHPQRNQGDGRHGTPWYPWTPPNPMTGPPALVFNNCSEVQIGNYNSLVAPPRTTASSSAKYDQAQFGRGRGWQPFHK
Sequence of UniProt P23975 (whole entry, looked up): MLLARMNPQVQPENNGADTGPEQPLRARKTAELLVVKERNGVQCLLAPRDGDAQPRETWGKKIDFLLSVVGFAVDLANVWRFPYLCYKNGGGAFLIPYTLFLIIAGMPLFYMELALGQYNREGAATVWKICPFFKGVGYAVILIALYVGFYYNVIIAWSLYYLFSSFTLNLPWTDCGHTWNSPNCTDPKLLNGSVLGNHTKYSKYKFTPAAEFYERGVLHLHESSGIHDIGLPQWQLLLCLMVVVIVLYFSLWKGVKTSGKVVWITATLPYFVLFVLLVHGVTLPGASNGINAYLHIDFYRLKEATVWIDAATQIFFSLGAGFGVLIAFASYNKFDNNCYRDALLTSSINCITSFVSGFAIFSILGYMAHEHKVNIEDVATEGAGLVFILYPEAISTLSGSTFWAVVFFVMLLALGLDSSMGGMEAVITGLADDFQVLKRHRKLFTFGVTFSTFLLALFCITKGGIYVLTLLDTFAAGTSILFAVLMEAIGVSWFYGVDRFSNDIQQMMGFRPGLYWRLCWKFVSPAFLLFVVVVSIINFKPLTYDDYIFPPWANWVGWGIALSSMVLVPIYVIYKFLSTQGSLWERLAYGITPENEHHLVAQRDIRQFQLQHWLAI
Sequence of UniProt Q03141 (whole entry, looked up): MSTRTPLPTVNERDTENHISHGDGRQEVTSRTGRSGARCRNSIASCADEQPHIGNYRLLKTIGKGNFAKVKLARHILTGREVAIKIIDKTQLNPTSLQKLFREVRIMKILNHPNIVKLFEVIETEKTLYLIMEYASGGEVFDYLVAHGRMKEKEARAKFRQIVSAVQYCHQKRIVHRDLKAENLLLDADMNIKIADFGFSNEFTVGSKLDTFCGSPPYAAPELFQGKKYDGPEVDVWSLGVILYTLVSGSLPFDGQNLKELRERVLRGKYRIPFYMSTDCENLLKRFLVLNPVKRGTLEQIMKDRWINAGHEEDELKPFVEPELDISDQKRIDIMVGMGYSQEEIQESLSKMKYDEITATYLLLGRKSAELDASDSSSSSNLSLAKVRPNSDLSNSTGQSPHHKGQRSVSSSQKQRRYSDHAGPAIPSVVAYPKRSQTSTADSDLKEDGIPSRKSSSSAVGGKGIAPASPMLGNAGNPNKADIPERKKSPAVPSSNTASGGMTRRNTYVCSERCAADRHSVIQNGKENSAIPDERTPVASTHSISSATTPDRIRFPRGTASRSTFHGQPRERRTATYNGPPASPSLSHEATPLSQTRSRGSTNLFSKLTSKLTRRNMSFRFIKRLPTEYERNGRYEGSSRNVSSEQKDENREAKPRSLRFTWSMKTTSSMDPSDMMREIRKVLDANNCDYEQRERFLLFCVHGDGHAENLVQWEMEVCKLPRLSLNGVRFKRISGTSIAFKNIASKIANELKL

Set 1 — host: mouse; sample: microsomes or S9; concentration: 2 µM; time: 0.5 h
Structure (SMILES) | remaining compound [%]
COCCNC(=O)[C@@H]1C[C@H](Oc2cccnc2)CN1C(=O)c1ccc(OC)nc1OC | 26.8
CCc1sc(C(=O)Nn2cnnc2)cc1Br | 81.9
CCc1n[nH]c(=O)c(-c2nc(C3CCCC3)cs2)c1CC | 1.78
CCC(C(=O)Nc1c(C)cc(C)cc1C)n1nc(C)c2c(C)onc2c1=O (stereo not drawn) | 21.3
O=C(c1ccc2nncn2c1)N1CC(c2ccccc2)C2(CCC2)C1 (stereo not drawn) | 73.8
COCc1nc(CCNS(=O)(=O)c2cccc(OC)c2)no1 | 0
Cc1[nH]c(=O)[nH]c(=O)c1S(=O)(=O)NCC(Cc1ccccc1F)c1ccccc1 (stereo not drawn) | > 100
Cc1cc(-c2cc(O)cc(CCC3CCCCN3)c2)ccn1 (stereo not drawn) | 21.6

Set 2
SMILES: COc1cc(C(=O)N2CCC(N3CCN(C)CC3)CC2)ccc1Nc1ncc2c(n1)N(C)c1ccccc1C(=O)N2C
tested on | test | test system | conditions | inhibition [%]
MST2 (mouse) | probe labelling, KiNativ ATP probe | mouse brain lysate | 0.1 µM, LYS1 labelled site | -159
MAP/microtubule affinity-regulating kinase 3 (Mark3, Mus musculus, UniProt Q03141) | KiNativ profiling | mouse brain lysate | 1 µM, LYS1 site, with: ATP acyl phosphate probe | 11.5
OSR1 (mouse) | KiNativ ADP probe | mouse brain tissue | 0.1 µM, probe site LYS2 | -57.3
CDK9 (mouse) | probe labelling, KiNativ, refers to: DMkAANVLITR peptide, LYS2 site | brain tissue lysate (mouse) | 1 µM, with: ATP acyl-phosphate probe | -8.9
MAP2K3 (human) | probe labelling, KiNativ ADP probe | human PBMC lysate | concentration not given, LYS2 labelled site | 9.2
human PBMC | probe labeling, inhibitor, KiNativ profiling, refers to: FYAVkVLQK | cell lysate | concentration not given, LYS1 site, with: ATP acyl-phosphate probe 1 µM | 0.8
TLK1 and TLK2 human | KiNativ profiling | human PBMC | 0.1 µM, LYS2 site, with: ADP acyl phosphate probe | -8.8
ULK3 mouse | KiNativ profiling | mouse brain lysate | 0.1 µM, LYS2 site, with: ADP acyl phosphate probe | 7.1

Single results of other studies
SMILES | target | read-out | method | sample | concentration | measurement | result
CC(C)S(=O)(=O)c1ccc2nccc(Nc3ccc4scnc4c3)c2c1 | Ripk3 (Mus musculus, UniProt Q9QZL0, C111A/R69H) | kinase domain dimerization | size-exclusion chromatography | Superdex 200 column | concentration not given | elution volume | 15.9 mL and 16.1 mL
CCC(=O)N[C@@H]1CC[C@H](C(=O)N(C)c2ccc(-c3nc4ccccc4o3)cc2)C1 | SLC6A2 (Homo sapiens, UniProt P23975) | binding | radioligand binding | – | 10 µM | inhibition | 14.5%

A few entries again (set 2):
tested on | test | test system | conditions | inhibition [%]
CDK9 (mouse) | probe labelling, KiNativ, refers to: DMkAANVLITR peptide, LYS2 site | brain tissue lysate (mouse) | 1 µM, with: ATP acyl-phosphate probe | -8.9
